Results from different studies.
Protocols differ between the studies behind these lines.
Target: Death-associated protein kinase 3 (DAPK3, Homo sapiens, UniProt O43293)
Sequence of UniProt O43293 (whole entry, looked up): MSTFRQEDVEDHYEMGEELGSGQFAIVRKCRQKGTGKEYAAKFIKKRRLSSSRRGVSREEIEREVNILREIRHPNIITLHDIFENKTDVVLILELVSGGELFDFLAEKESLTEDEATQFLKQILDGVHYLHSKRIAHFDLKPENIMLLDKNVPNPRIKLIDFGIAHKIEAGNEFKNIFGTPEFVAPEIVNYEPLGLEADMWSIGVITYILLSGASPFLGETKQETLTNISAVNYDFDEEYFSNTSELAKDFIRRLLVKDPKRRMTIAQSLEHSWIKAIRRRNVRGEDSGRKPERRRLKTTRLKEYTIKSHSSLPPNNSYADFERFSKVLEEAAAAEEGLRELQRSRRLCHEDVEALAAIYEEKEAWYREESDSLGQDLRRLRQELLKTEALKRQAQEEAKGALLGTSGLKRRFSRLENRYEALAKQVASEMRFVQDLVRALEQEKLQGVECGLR

For `O=C(Cc1ccc(OCc2ccccc2)cc1)NC1(C(=O)O)CCN(C(=O)c2ccc(-c3cccc(Cl)c3)cc2)CC1`, “activity vs control” read 110% (enzyme activity, inhibitor; 10 µM).
`Cc1ccc(-c2c(/C=C(\C#N)C(=O)NC(C)C)n(CCCO)c3ncnc(N)c23)cc1` gave a remaining binding of 95% (cell-free assay, competition with immobilised ligand; 1 µM).
`C=CC(=O)Nc1cccc(-c2cnc3[nH]cc(C(=O)NC(C)(C)C)c3n2)c1` has an inhibition of -1% (enzyme activity, inhibitor; 0.1 µM).
`CNC(=O)C1CCN(c2cc(C)c(F)cc2NC(=O)c2ccc(-c3cc(O)ccc3C)c(C)c2)CC1` has a remaining binding of 95% (binding, competition with immobilised ligand; 1 µM).
With `COc1c(OCCCN2CCOCC2)ccc2c1N=C(NC(=O)c1cnc(N)nc1)N1CCN=C21` the remaining activity was 101% (kinase activity, inhibitor; 1 µM; reference: untreated control).
`O=C=[N][Ru-4]123([n]4c5ccc(O)cc5c5c6c(c7cc(F)c[n+]1c7c54)C(=O)NC6=O)[S+]1CC[S+]2CC[S+]3CC1` (stereo not drawn) has a remaining activity of 18% (enzyme activity; 100 nM, human enzyme, added: 10 µM ATP; reference: untreated).
`CC(C)=CC1OC(C)(C)C2C=C3C(=O)C(Cl)=CC(O)C3C3C(O)C4OC4C(=O)C132` (stereo not drawn) gave a remaining binding of 64% (cell-free assay, competition with immobilised ligand; 10 µM).
For `Nc1ncc(-c2cc(-c3cnn(CC(F)(F)F)c3)ncc2F)nc1C(=O)NC1CNCC(F)C1` (stereo not drawn), the remaining activity was 99.6% (enzyme activity; 1 µM; reference: DMSO control).
With `Cc1cccc(O[C@H]2CCC[C@@H](C(C)CNCc3ccncc3)C2)c1` (relative stereo) the inhibition was -4% (enzyme activity, inhibitor; 10 µM).
With `COc1cc(Nc2nccc(-c3cnn4nc(OC)ccc34)n2)cc(C(F)(F)F)c1` the remaining binding was 99% (binding, competition with immobilised ligand; 1 µM).
With `COc1ccc(NC(=O)Nc2ccc3c(c2)C(=O)N(C(C)CO)CC(C)C(CN(C)Cc2ccc4c(c2)OCO4)O3)cc1` (stereo not drawn) the remaining activity was 105% (kinase activity, KinaseProfiler; 0.03 µM, species human; reference: control).
With `Cc1cnc2nc1Nc1cccc(c1)COC/C=C/COCc1cc(ccc1OCCN1CCOCC1)N2` the remaining binding was 66% (binding; 0.1 µM).
`NC(=O)C[C@H]1CCc2sc3ncnc(O[C@H]4CC[C@H](N5CCOCC5)CC4)c3c21` gave an inhibition of -3% (enzyme activity, inhibitor; 10 µM).
The remaining binding of `C=CC(=O)N1CCCC(n2c(=O)c3ncccc3n(Cc3ccc(Oc4ccccc4)cc3)c2=O)C1` (stereo not drawn) is reported as 97% (cell-free assay, competition with immobilised ligand; 1 µM).
`CCn1cc(C(=O)O)c(=O)c2c(N)c(F)c(NC3CCCCC3)cc21` gave an inhibition of 4.6% (kinase activity; 0.1 µM, added: ATP at Km).

Excerpt of the above:
`CC(C)=CC1OC(C)(C)C2C=C3C(=O)C(Cl)=CC(O)C3C3C(O)C4OC4C(=O)C132` (stereo not drawn) gave a remaining binding of 64% (cell-free assay, competition with immobilised ligand; 10 µM).
With `Cc1cnc2nc1Nc1cccc(c1)COC/C=C/COCc1cc(ccc1OCCN1CCOCC1)N2` the remaining binding was 66% (binding; 0.1 µM).
With `COc1ccc(NC(=O)Nc2ccc3c(c2)C(=O)N(C(C)CO)CC(C)C(CN(C)Cc2ccc4c(c2)OCO4)O3)cc1` (stereo not drawn) the remaining activity was 105% (kinase activity, KinaseProfiler; 0.03 µM, species human; reference: control).
